Measured values gathered from unrelated publications.
Each numbered part is a random draw from the data of one study; scales do not carry over between parts. Changes are numbered by the printed parent chain.

Sample 1
Target: RING finger protein unkempt homolog, zinc fingers 1-6, GST-SBP tag (UNK, Homo sapiens, UniProt Q9C0B0, residues 30-357)
Sequence of UniProt Q9C0B0 (30-357, looked up): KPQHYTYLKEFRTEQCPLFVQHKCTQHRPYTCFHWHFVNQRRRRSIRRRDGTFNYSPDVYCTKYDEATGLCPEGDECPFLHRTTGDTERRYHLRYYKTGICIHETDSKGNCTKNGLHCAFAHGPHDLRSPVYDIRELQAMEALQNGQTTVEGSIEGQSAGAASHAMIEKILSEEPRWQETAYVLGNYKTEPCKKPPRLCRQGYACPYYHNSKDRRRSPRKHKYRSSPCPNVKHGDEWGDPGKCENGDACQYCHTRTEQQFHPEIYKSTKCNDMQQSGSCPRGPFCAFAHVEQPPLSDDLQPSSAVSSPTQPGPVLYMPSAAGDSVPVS
Method: RNA Bind-n-Seq
Form: RNA
Sample: in vitro
Concentration: not given
Setting: RNA with constant flanks, human-mouse chimeric sites, ends assumed
Baseline: input RNA pool
Direction: higher = stronger binding
Oligonucleotide	bound/input enrichment
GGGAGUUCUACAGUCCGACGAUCUAAAUCCUGUGCCAGCACUUCGCUCAUAAAGUUUUAAAUUCUGGACCAAUAGUGUUUAUCUUUAGAAUAUUGUAUCCAAUACUUUGCCUAGUAUGUAACUCACUCUUACUGAUAAUAAAACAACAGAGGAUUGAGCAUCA	20.1 ratio
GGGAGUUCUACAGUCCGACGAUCAACUUUGUGCAUCGGUUUCCCUUUGUAGCUGUUUCAAUUGGCUUCCUUGUGAAUAAAGAGAUGGAGUUUGGAAUUGUGUACAGCUGUGUGGAAGAUAAGAUGUACACUGCCAGAAAAGGGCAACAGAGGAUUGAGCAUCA	0.319 ratio
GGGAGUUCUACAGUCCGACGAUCUCCUUGGACCCCAGUCAUAUAGGUGACCUGCAAAAAGCAGACACCAGUAGUCAAGGUGCUUUAGUGUUUCUCUCAAAGGACUACGAGAUAGAAAAUCAAAAUCCUCUGGCCUCUCCUACGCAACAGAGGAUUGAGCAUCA	1.41 ratio
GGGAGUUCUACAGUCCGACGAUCCAGCCUCAGAGCCCAGACUUCCUGGAUAUUACCAACCCUAAAGCGGUAUUAGAAAAUGCAUUGAGAAACUUUGCCUGUCUGACGACUGGAGAUGUGAUUGCCAUCAACUACAAUGAGAAGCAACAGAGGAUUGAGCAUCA	0.464 ratio
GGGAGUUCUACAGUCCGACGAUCGAUCUCGGGCCCUCCCCAGGGGCCUCCUUUCGUAUAGUCACUGCUUCUGCAUCAGAUACUUUCAGCUCCAAGUCCUGACUGGGUGGGGCACCCAUUUCAGGCAGAAGGUUUUGGUACCCUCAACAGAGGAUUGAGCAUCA	0.222 ratio
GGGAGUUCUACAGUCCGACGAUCUUCAAAGAAAAGGGCAGUUCAUAAAUAUCAUAAGUAACUCUGGGGGAGGGAAAUUCUGUUCUUUUGUUUAAUUUUCCCCCAGAUAAAGCCAAAGUGUGUGUUGAAGAACUGAGAAAAAAUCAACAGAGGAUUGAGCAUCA	0.247 ratio
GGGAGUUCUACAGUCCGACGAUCAAAGCCCAAGUAUUUUGAAAAAACUCGAACAGAUUUGACAAGGGUAGCCAGCUUGGAGUCUAGCAACUUUGCCAAUGUGCUUACCAACUGGGGGCUUGUUUUUCUUUUCUUCUUUCAAAUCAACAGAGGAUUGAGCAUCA	0.318 ratio
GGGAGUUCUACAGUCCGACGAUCGUAGCUGGCCAUUAGGAAAUGCUGGUAAUUUCAGUCAGUGAGUCGUGACUUCUGAUGUCCCAGCAAAUGUUGGCAUUGUUGACUGCUGAGAAGAUACUUCUGAGGACCCACGUCUAAGGUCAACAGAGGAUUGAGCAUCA	0.234 ratio
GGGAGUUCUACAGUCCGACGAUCUAAAUUAGGGCUGCCGUCCGUUCUCACUCCCUGGGCUGCGGAAAGCCAGAAGAUUUUAUCUAGCUUAUACAAGGCUGCUGGUGUUCCCUCUUUUUUUCCACGAGGGUGUUUUUGGCUGCACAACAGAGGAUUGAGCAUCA	0.558 ratio

Sample 2
Target: Prothrombin, mature alpha-thrombin (F2, Homo sapiens, UniProt P00734)
Method: aptamer microarray, sandwich
Form: DNA with 2'F-ANA
Sample: in vitro
Concentration: 200 nM
Setting: whole 15-mer aptamer, many near background
Together with: Cy3 exosite-II aptamer, 400 nM
Direction: higher = stronger binding
Oligonucleotide: GGTTGGTGTGGTTGG
Modification	mean fluorescence intensity [a.u.]
2'F-ANA at 2 6 7 8 10 12 13 15	174
2'F-ANA at 3 4 5 6 8 9 10 11 13 14 15	85.7
2'F-ANA at 1 4 5 7 8 13 15	53.4
2'F-ANA at 1 2 8 9 10 13 15	111
2'F-ANA at 1 2 4 5 7 9 10 11 12 13 14 15	47.2
2'F-ANA at 2 4 6 7 9 10 11 14 15	61.4
2'F-ANA at 2 3 8 12 14 15	526
2'F-ANA at 1 4 8 13	119
2'F-ANA at 1 2 3 6 9 10 15	67.5
2'F-ANA at 2 3 4 7 9 12 14	344

Sample 3
Target: ABI1, truncated, D143A, DHFR fusion (Arabidopsis thaliana)
Method: DHFR PCA, deep sequencing
Sample: yeast
Setting: methotrexate growth selection, single substitutions
Together with: (+)-ABA 710 µM
Baseline: wild-type fitted maximum
Direction: higher = stronger binding
Starting sequence: PYL1, truncated, DHFR fusion (Arabidopsis thaliana); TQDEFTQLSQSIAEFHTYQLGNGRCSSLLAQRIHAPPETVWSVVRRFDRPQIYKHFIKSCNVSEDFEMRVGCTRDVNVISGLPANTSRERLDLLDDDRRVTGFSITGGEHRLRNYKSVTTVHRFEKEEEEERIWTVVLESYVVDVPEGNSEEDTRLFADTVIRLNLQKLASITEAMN
Change	relative binding score [%]
E152R	96.7
L166W	9.58
G102E	52.1
P83Q	73.4
V40D	-7.53

Single results of other studies
Substance	target	test	system	conditions	how to read	quantity	result
PhoQ, residues 284 288 289 292 302 303 SQSLSM	PhoP, residues 12 14 15 18 19 MHTVL (Escherichia coli, UniProt P23836)	Sort-seq, item: YFP reporter	E. coli	PhoQ-PhoP variant library, together with: 10 µM Mg2+	baseline: high Mg2+ state, higher = stronger signaling	fold induction	11.6

Excerpt of the above (sample 3):
Change	relative binding score [%]
L166W	9.58
E152R	96.7
P83Q	73.4
G102E	52.1
